# Measured values gathered from unrelated publications.
# Compare with care: the assays were run in different laboratories. Numbers after ± are the reported error.
Compound,assay,system,conditions,measurement,value
CC(=O)N([O-])CCCCCNC(=O)CCC(=O)N([O-])CCCCCNC(=O)CCC(=O)N([O-])CCCCCN.[89Zr+4],radio-iTLC,aqueous buffer,"3 h, pH 5.5, 37 °C, EDTA challenge, added: 100-fold excess EDTA",intact complex,69.9 ± 1.5%
COc1ccc2ccc(C(=O)Nc3ccc(CN)cc3)c(O)c2c1,,rat liver microsomes,"1 µM, added: NADPH",t1/2,1.05 h
COC(=O)C(c1ccccc1Cl)N1CCC(SCC(=O)c2cccc(OC)c2)C(=CC(=O)O)C1 (mixture of isomers),HPLC-MS/MS,feline citrate plasma,"100 ng/mL, 72 h, -20 °C, storage stability",deviation from nominal,-16%
CC(=O)N[C@H](CC(=O)O)C(=O)N[C@H](Cc1c[nH]c2ccccc12)C(=O)N[C@H](Cc1ccccc1)C(=O)N[C@H](CCCCN)C(=O)N[C@H](C)C(=O)N[C@H](Cc1ccccc1)C(=O)N[C@H](Cc1ccc(O)cc1)C(=O)N[C@H](CC(=O)O)C(=O)N[C@H](CCCCN)C(=O)N[C@@H](C(=O)N[C@H](C)C(=O)N[C@H](CCC(=O)O)C(=O)N[C@H](CCCCN)C(=O)N[C@H](Cc1ccccc1)C(=O)N[C@H](CCCCN)C(=O)N[C@H](CCC(=O)O)C(=O)N[C@H](C)C(=O)N[C@H](Cc1ccccc1)C(N)=O)C(C)C,,"statin-treated high-risk CHD men, plasma","oral, 500 mg daily, day 1, 0-2 h, mean, undetectable set to 0",Cmax,23.4 ng/mL
Cc1cccc(O[C@H]2CCC[C@@H](C(C)CNCc3ccncc3)C2)c1 (relative stereo),,"C57BL/6 mouse female, plasma","oral, 25 mg/kg",AUC(0-t),2770 ng·h/mL
CO[C@H]1/C=C/O[C@@]2(C)Oc3c(C)c(O)c4c(c3C2=O)C2=NC3(CCN(CC(C)C)CC3)NC2=C(NC(=O)/C(C)=C\C=C\[C@H](C)[C@H](O)[C@@H](C)[C@@H](O)[C@@H](C)[C@H](OC(=O)c2cccc(F)c2)[C@@H]1C)C4=O,,CD-1 mouse,"10 mg/kg, single dose",t1/2,11.7 h
Cn1c(=O)oc2ccc(-c3ccc(CC(C#N)NC(=O)C4CNCCCO4)c(F)c3)cc21 (stereo not drawn),,human,"oral, 40 mg once daily, TEAE, multiple ascending dose",bilirubin increased incidence,11.1%
Cc1ccc(-c2ccc(-c3cc4sccc4o3)cn2)nc1,,CHCl3,added: quinine bisulfate reference,fluorescence quantum yield,0.44
COc1ccc(S(=O)(=O)N/N=C/c2ccc(C#N)cc2)cc1OC,,male Wistar rat liver microsomes,"10 µM, 3 h, pH 7.4, added: without NADPH",compound consumed,~15%
CCCC[C@@H]1NC(=O)[C@@H](NC(=O)[C@H](CCC(=O)O)NC(=O)CNC(=O)CN2CCN(CC(=O)O)CCN(CC(=O)O)CCN(CC(=O)O)CC2)CCCCNC(=O)C[C@@H](C(N)=O)NC(=O)[C@H](C(C)C)NC(=O)[C@@H]2CCCN2C(=O)[C@H](CCCNC(=N)N)NC(=O)CNC(=O)[C@H](Cc2c[nH]c3ccccc23)NC(=O)[C@H](CCCNC(=N)N)NC(=O)[C@@H](Cc2ccccc2)NC(=O)[C@H](Cc2c[nH]cn2)NC(=O)[C@H](CCC(=O)O)NC1=O [gallium-67 labelled],,"C57 mice with B16/F1 melanoma, pancreas","intravenous, 0.037 MBq, 24 h",tissue uptake,0.11 ± 0.07 %ID/g
O=C(O)C1OC(Oc2cccc(-c3nc(N4CCOCC4)c4oc5ncccc5c4n3)c2)C(O)C(O)C1O (stereo not drawn),glucuronide formation,human intestinal microsomes,pH 7.4,CLint,211 ± 32.8 µL/min/mg
C=C(c1ncc(C(=O)O)cn1)c1cc2c(cc1C)C(C)(C)CCC2(C)C,,"Sprague-Dawley rat, male, plasma","oral, 100 mg/kg, 1 h, sesame oil vehicle",HDL level,74 ± 4 mg/dL
COc1ccc(NC(=O)[C@H](CCCCN)NC(=O)c2cc(NC(=O)[C@H](CCCCN)NC(=O)c3cc(NC(=O)[C@H](CCCCN)NC(=O)c4cc(NC(=O)[C@@H](N)CCCCN)ccc4OC)ccc3OC)ccc2OC)cc1C(N)=O,UV-vis λmax shift,Tris 50 mM,"pH 7.4, monomer-hexamer global fit, added: NaCl 1.0 M",log association constant,26.5
CCC(=O)N[C@@H](C)C(=O)OCC(=O)N[C@@H](C)C(=O)O,,water,"pH 8, 65 °C",depolymerization half-life,0.88 h
O=C([O-])CN1CCN(CC(=O)[O-])CCN(CC(=O)NCC2CCC(C(=O)NC(Cc3ccc4ccccc4c3)C(=O)NCCCCC(NC(=O)NC(CCC(=O)O)C(=O)O)C(=O)O)CC2)CCN(CC(=O)[O-])CC1.[44Sc+3] (stereo not drawn),,human serum,"24 h, 37 °C",intact tracer,> 95%

# For quick reference, copied from above:
Compound,assay,system,conditions,measurement,value
COc1ccc(S(=O)(=O)N/N=C/c2ccc(C#N)cc2)cc1OC,,male Wistar rat liver microsomes,"10 µM, 3 h, pH 7.4, added: without NADPH",compound consumed,~15%
